Assay results pooled from the literature.
Parts stem from different laboratories: compare values within a part only. Changes are numbered by the printed parent chain.

Sample 1
Target: Sal-like protein 4, full length isoform B (SALL4, Homo sapiens, UniProt Q9UJQ4-2, residues 1-616)
Technique: universal PBM
Molecule type: double-stranded DNA, one strand shown
Matrix: in vitro
Tested at: not given
Notes: 8-mer, flanks averaged, mean of replicates
Reading: higher = stronger binding
Quantity: E-score
GGCCCTCA: -0.227
ACGACTAG: 0.0467
CCACTTCA: -0.0143
AACGCGTT: -0.0312
ATTCTACC: 0.22
TATACGAA: 0.299
CCAAACAG: -0.119
ACGCATCA: 0.0591
GATTTGAC: -0.00584
TGAAGTAA: 0.116
CAACTGTC: -0.0693
GGACCGAA: -0.0134
GCGCTAAA: -0.0373
AGCGGCAG: -0.267
ATCAAACG: 0.0271
CTAGGTCC: -0.281
ACACGGCA: -0.179
CTATGCAA: 0.116
ACATGCAA: 0.146

Sample 2
Target: ABI1, truncated, D143A, DHFR fusion (Arabidopsis thaliana, UniProt P49597)
Technique: DHFR PCA, dose-response
Matrix: yeast
Notes: Hill fit, mean, not affinity
With: (+)-ABA, dose series
Reading: lower = more sensitive
Quantity: ABA EC50
Starting sequence: PYL1, truncated, DHFR fusion (Arabidopsis thaliana, UniProt Q8VZS8); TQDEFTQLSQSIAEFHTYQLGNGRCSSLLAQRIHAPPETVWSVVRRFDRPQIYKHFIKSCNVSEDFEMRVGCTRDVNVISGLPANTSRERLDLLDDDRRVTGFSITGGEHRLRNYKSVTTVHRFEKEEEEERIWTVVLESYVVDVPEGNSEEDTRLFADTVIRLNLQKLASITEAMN
N85R: 0.683 µM
L164W: 9.33 µM
Q51N: 12.4 µM
L28V: 11.6 µM
E174T: 8.01 µM
R24S: 4.66 µM
S150Y: 65.5 µM
R49T: 2.61 µM
S63R: 2.43 µM
D96R: 832 µM
V62K: 89.5 µM
S27M: 128 µM
P36N: 3.59 µM
R163S: 5.3 µM
T39H: 4.62 µM
R90G: 486 µM

Sample 3
Target: FOXO3, forkhead domain (mouse, UniProt Q9WVH4, residues 31-263)
Sequence of UniProt Q9WVH4 (31-263, looked up): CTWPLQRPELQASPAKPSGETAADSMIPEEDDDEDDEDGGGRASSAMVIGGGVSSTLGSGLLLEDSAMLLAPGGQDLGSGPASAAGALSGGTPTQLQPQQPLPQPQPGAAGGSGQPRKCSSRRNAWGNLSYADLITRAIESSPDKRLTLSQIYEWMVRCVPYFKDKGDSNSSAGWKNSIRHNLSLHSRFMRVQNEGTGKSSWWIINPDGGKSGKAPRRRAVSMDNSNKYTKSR
Technique: protein-binding microarray
Molecule type: hairpin DNA
Matrix: in vitro
Tested at: not given
Notes: whole hairpin DNA, median over replicate spots
Relative to: not given
Reading: higher = stronger binding
Quantity: median fluorescence
GAGGCCATGCAAACAAAGCCTCCTGGCTTTGTTTGCATGGCCTCACACTC: 4420 a.u.
GAGGCCATGTAACAAACGCCTCCTGGCGTTTGTTACATGGCCTCACACTC: 3860 a.u.
GAGGCCATGCAACCAACGCCTCCTGGCGTTGGTTGCATGGCCTCACACTC (5mC at 10): 4520 a.u.
GAGGCCATGTACCCAACGCCTCCTGGCGTTGGGTACATGGCCTCACACTC (5mC at 12): 4090 a.u.
GAGGCCATGCCGACAACGCCTCCTGGCGTTGTCGGCATGGCCTCACACTC (5mC at 11): 4540 a.u.
GAGGCCATGCAAACCGCGCCTCCTGGCGCGGTTTGCATGGCCTCACACTC (5mC at 29): 4930 a.u.
GAGGCCAGGCAAACAACGCCTCCTGGCGTTGTTTGCCTGGCCTCACACTC: 5360 a.u.
GAGGCCATGCAAACTACGCCTCCTGGCGTAGTTTGCATGGCCTCACACTC: 4320 a.u.
GAGGCCATGTAAAGAACGCCTCCTGGCGTTCTTTACATGGCCTCACACTC (5mC at 31): 3490 a.u.
GAGGCCCGGTAACCAACGCCTCCTGGCGTTGGTTACCGGGCCTCACACTC: 4780 a.u.
GAGGCCATGCACGCAACGCCTCCTGGCGTTGCGTGCATGGCCTCACACTC (5mC at 32): 4840 a.u.
GAGGCCATGTAAACGACGCCTCCTGGCGTCGTTTACATGGCCTCACACTC (5mC at 14 30): 4610 a.u.
GAGGCCAGGCAAACAACGCCTCCTGGCGTTGTTTGCCTGGCCTCACACTC (5mC at 37): 5010 a.u.

Sample 4
Target: Prothrombin, mature alpha-thrombin (F2, Homo sapiens, UniProt P00734)
Technique: aptamer microarray, sandwich
Molecule type: DNA with 2'F-ANA
Matrix: in vitro
Tested at: 200 nM
Notes: whole 15-mer aptamer, many near background
With: Cy3 exosite-II aptamer, 400 nM
Reading: higher = stronger binding
Quantity: mean fluorescence intensity
Oligonucleotide: GGTTGGTGTGGTTGG
2'F-ANA at 3 4 5 6 7 8 10 11 15: 56.2 a.u.
2'F-ANA at 1 5 7 8 10 11 12 15: 49.2 a.u.
2'F-ANA at 3 8 9 10 11: 585 a.u.
2'F-ANA at 3 4 5 6 7 8 9 11 12: 183 a.u.
2'F-ANA at 2 3 4 7 12 13: 850 a.u.
2'F-ANA at 3 4 8 10 11 13 14: 305 a.u.
2'F-ANA at 1 3 4 7 9 10 11 13: 58 a.u.
2'F-ANA at 1 2 3 8 9 10 12 13 14: 55 a.u.
2'F-ANA at 1 5 7 8 14: 45.4 a.u.
2'F-ANA at 1 2 3 5 6 8 10: 82 a.u.
2'F-ANA at 3 4 5 6 7 8 10 11 12 14 15: 48.3 a.u.
2'F-ANA at 1 4 5 6 7 9 10 11 12 15: 49.1 a.u.
2'F-ANA at 2 4 5 8 9 14: 42.7 a.u.
2'F-ANA at 2 3 4 5 9 10 12 13 15: 57.6 a.u.
2'F-ANA at 1 2 3 6 7 9 13 14: 87.2 a.u.
2'F-ANA at 1 3 4 9 10 12 14 15: 55.5 a.u.
2'F-ANA at 1 4 5 6 7 11 12 13 15: 61.2 a.u.
2'F-ANA at 1 5 6 7 9 11 13 15: 47 a.u.
2'F-ANA at 1 3 4 8 11 12 13 15: 285 a.u.
2'F-ANA at 1 2 3 4 5 6 7 10 11 13 14: 48.5 a.u.
2'F-ANA at 1 2 3 5 6 8 9 11 14: 57.7 a.u.
2'F-ANA at 2 5 6 7 9 10 11 13: 48.7 a.u.

Sample 5
Target: RING finger protein unkempt homolog, zinc fingers 1-6, GST-SBP tag (UNK, Homo sapiens, UniProt Q9C0B0, residues 30-357)
Technique: RNA Bind-n-Seq
Molecule type: RNA
Matrix: in vitro
Tested at: not given
Notes: RNA with constant flanks, human and mouse sites, ends assumed
Relative to: input RNA pool
Reading: higher = stronger binding
Quantity: bound/input enrichment
Construct (chain): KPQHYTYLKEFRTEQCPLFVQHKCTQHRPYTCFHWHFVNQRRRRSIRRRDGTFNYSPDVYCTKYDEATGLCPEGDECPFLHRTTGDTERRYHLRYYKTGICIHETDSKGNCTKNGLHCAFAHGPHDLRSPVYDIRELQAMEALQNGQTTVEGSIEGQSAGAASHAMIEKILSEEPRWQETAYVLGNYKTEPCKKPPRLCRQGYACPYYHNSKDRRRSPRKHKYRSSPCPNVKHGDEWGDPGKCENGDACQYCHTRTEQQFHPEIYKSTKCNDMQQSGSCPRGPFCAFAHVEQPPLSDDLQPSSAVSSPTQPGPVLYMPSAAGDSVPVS
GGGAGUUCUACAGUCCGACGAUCGCCAGCAAGAACGAGGAGGACGCGGGAAAAAUGUUCGUUGGUGGCCUGAGCUGGGAUACUAGCAAAAAAGAUUUAAAAGACUAUUUUACUAAAUUUGGAGAGGUCGUUGACUGUACAAUACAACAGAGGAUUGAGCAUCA: 0.996 ratio
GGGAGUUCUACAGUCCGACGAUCAGACGACGGGAAUAUCAGUUAUCUGACUCUACCAAAUACUAUCUGAAUGACUUGGACCGUGUAGCCGACCCUUCCUAUCUGCCUACACAACAAGACGUGCUUAGAGUUCGAGUCCCCACUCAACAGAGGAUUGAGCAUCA: 0.21 ratio
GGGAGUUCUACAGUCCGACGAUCUCCCUAGUGCAUACCUGUUCGCUUCUCAUUCUCUUUUGUCUCCCCUUUCCUCGCCUCUCCCUUUUCCAUGCCGUCCAUGAUCCCCACCCCAUGUGUUAAGAAGGCAGUAGCCUUUACAGGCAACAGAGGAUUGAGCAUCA: 1.4 ratio
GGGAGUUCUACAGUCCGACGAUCCUCACGGCCCAGCAUGAAAACUUCAGGAAAAAGCAAAUUGAGGAACUGAAGGGACAGGAAGUUAGCCCUAAAGUUUACUUCAUGAAGCAGACCAUCGGAAACUCCUGUGGUACCAUCGGGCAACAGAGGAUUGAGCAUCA: 0.0922 ratio
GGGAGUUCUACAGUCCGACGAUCUUUACGACUGAAGACAAUGGGAAAGAAAAUAAAACUCCCUCCUCUGAUGCACAGGAUAAGCAGUUUGGUACUUGGAGACUGAGAGUCACACCUGUCGAUUACCUUCUGGGAGUGGCUGACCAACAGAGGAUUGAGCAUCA: 0.234 ratio
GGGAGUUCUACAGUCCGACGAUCAAGAAAUACAAACAGGACAGUAAGAAGGAAGAGCAGGCCGCAUCUGCUGCUGCAGAAGACACAUGUGAUGUAGGCGUGAGCUCCGAUGAUGACAAGGGGGCCCAGGCAGCACGAGGAUCUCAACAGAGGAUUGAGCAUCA: 0.28 ratio

Sample 6
Target: Interferon regulatory factor 5, full length, phosphomimetic (IRF5, Homo sapiens, UniProt Q13568-2, residues 1-514, K96S/S451D/S453D/S456D/S462D)
Technique: protein-binding microarray
Molecule type: double-stranded DNA, one strand shown
Matrix: in vitro
Tested at: 250 nM
Notes: 60-bp whole probe
With: salmon DNA 0.4 mg/ml
Relative to: random background probes
Reading: higher = stronger binding
Quantity: log fluorescence
All sequences stand within: GCCTAGCAC … GTCTTGATTCGCTTGACGCTGCTG
GACGGACTGGGATTTCGGGACGTGCTA: 0.327 z-score
GACGGACTAGGACTGGGGACGTGCTAG: -0.471 z-score
GACGGACTGGGACTGGGGATGTGCTAG: -0.581 z-score
GACGAATTCGGGACTGGAGACGTGCTA: -0.274 z-score
TGTGTCCTGGCTTTGACTCTGTGCTAG: -0.498 z-score
TTAGAACTGAGTTTCGATCAGTGCTAG: 9.11 z-score
TCATGTTTGGTTCTGATACTGTGCTAG: 0.589 z-score
TTAGGTTTCGGTTCCGGGTAGTGCTAG: 9.98 z-score
GACGATTACAGTTTCGAGACGTGCTAG: 4.37 z-score
ATGTGTTTACAGATGTTTTTGTGCTAG: 0.657 z-score
ATAGATTTCAGTTTCGATTAGTGCTAG: 10.5 z-score
GGACGAGCGACGGTGACACTGTGCTAG: -0.879 z-score
GACGGTCTCCTTTTCCTCACGTGCTAG: 0.203 z-score
TTAGGTTTCCGGTTTCGGTTAGTGCTA: 8.6 z-score

Other studies, line by line
Organism: Saccharomyces cerevisiae
Effect on: peptide binding
Technique: yeast competitive growth sequencing
Molecule type: peptide
Strain: cyclin F-Cln2 fusion
Tested at: concentration not given
Notes: library 2, Cln2-subtracted
Reading: direction not given
PSSMRKICTYFHR — binding score: 1.89
PPVIIKYIIINRF — binding score: 1.25

For quick reference, copied from above (sample 1):
ATTCTACC: 0.22
TATACGAA: 0.299
CCAAACAG: -0.119
ACGCATCA: 0.0591
GATTTGAC: -0.00584
TGAAGTAA: 0.116
CAACTGTC: -0.0693
GGACCGAA: -0.0134
GCGCTAAA: -0.0373
AGCGGCAG: -0.267
ATCAAACG: 0.0271
CTAGGTCC: -0.281
ACACGGCA: -0.179
CTATGCAA: 0.116
